Measurements of several laboratories.

| SMILES | test | test system | setting | measurement | value |
| --- | --- | --- | --- | --- | --- |
| C[C@@H](N)c1cc(Cl)ccc1Cn1c(=S)[nH]c(=O)c2[nH]ccc21 |  | human | oral, 2.5 mg single dose | subjects with headache | 10% |
| CC(=O)CC(c1ccccc1)c1c(O)c2ccccc2oc1=O (stereo not shown) |  | human | concentration not given, trial 1 | subjects with eye disorders | 0% |
| CN(Cc1cnc2nc(N)nc(N)c2n1)c1ccc(C(=O)N[C@@H](CCC(=O)O)C(=O)O)cc1 | item: Diarrhea | healthy human | oral, dose not given | subjects with adverse event | 0% |
| COC(=O)N[C@H](C(=O)N1CCC[C@H]1c1ncc(-c2cc(F)c3c(c2)O[C@@H](c2cnc(C4CC4)s2)n2c-3cc3cc(-c4cnc([C@@H]5CCCN5C(=O)[C@@H](NC(=O)OC)C(C)C)[nH]4)ccc32)[nH]1)C(C)C |  | healthy adult human | oral, 180 mg, 6 days, compound alone | subjects with upper abdominal pain | 6.3% |
| C[C@H]1CN(C(=O)CC#N)[C@]12CCN(c1ncnc3[nH]ccc13)C2 |  | healthy human | oral, 6 mg single | subjects with serious TEAEs | 0% |
| Cc1cc(-c2nccc3c2ccn3CC(=O)Nc2ccc(-c3cnccn3)cn2)ccn1 |  | human | 5 mg once daily, multiple ascending dose | subjects with Folliculitis adverse event | 12.5% |
| C=C(C)[C@@H]1CC[C@]2(NCCN3CCS(=O)(=O)CC3)CC[C@]3(C)[C@H](CC[C@@H]4[C@@]5(C)CC=C(C6=CC[C@@](CF)(C(=O)O)CC6)C(C)(C)[C@@H]5CC[C@]43C)[C@@H]12 |  | healthy human volunteers | oral, 500 mg, 7 days | subjects with musculoskeletal disorders | 17% |
| CC[C@H](C)[C@H](NC(=O)[C@H](Cc1ccccc1)NC(=O)[C@H](CCC(=O)O)NC(=O)[C@H](CCCCNC(=O)COCCOCCNC(=O)COCCOCCNC(=O)CC[C@H](NC(=O)CCCCCCCCCCCCCCCCC(=O)O)C(=O)O)NC(=O)[C@H](C)NC(=O)[C@H](C)NC(=O)[C@H](CCC(N)=O)NC(=O)CNC(=O)[C@H](CCC(=O)O)NC(=O)[C@H](CC(C)C)NC(=O)[C@H](Cc1ccc(O)cc1)NC(=O)[C@H](CO)NC(=O)[C@H](CO)NC(=O)[C@@H](NC(=O)[C@H](CC(=O)O)NC(=O)[C@H](CO)NC(=O)[C@@H](NC(=O)[C@H](Cc1ccccc1)NC(=O)[C@@H](NC(=O)CNC(=O)[C@H](CCC(=O)O)NC(=O)C(C)(C)NC(=O)[C@@H](N)Cc1cnc[nH]1)[C@@H](C)O)[C@@H](C)O)C(C)C)C(=O)N[C@@H](C)C(=O)N[C@@H](Cc1c[nH]c2ccccc12)C(=O)N[C@@H](CC(C)C)C(=O)N[C@H](C(=O)N[C@@H](CCCNC(=N)N)C(=O)NCC(=O)N[C@@H](CCCNC(=N)N)C(=O)NCC(=O)O)C(C)C |  | healthy human | subcutaneous, 0.25 to 1.5 mg weekly, 16 weeks | subjects with adverse events | 83.1% |
| Cc1nc(Nc2ncc(C(=O)Nc3c(C)cccc3Cl)s2)cc(N2CCN(CCO)CC2)n1 |  | human | oral, 100 mg | subjects with serious AE | 0% |
| CN(C)C(=N)N=C(N)N | item: nervous system disorders | healthy human | oral, dose not given | subjects with adverse event | 20.8% |
| O=C(COc1ccc(Cl)cc1)NC12CC(c3nnc([C@H]4C[C@@H](OC(F)(F)F)C4)o3)(C1)C2 |  | humans | concentration not given | subjects with drug-related TEAE | 71.4% |
| C=CC(=O)NC1CCN(c2ncc3ncnc(Nc4ccc(Oc5ccc6c(c5)ncn6C)c(C)c4)c3n2)CC1 |  | healthy male human | oral, 60 mg, 2 weeks, maximum CTCAE grade 1 | subjects with adverse events | 75% |
| CN1C(=O)[C@@H](NC(=O)c2nnc(Cc3ccccc3)[nH]2)COc2cccnc21 |  | human, fasted | oral, 800 mg single dose | subjects with headache | 16.7% |
| CO[C@H]1/C=C/O[C@@]2(C)Oc3c(C)c(O)c4c(O)c(c(/C=N/N5CCN(C)CC5)c(O)c4c3C2=O)NC(=O)/C(C)=C\C=C\[C@H](C)[C@H](O)[C@@H](C)[C@@H](O)[C@@H](C)[C@H](OC(C)=O)[C@@H]1C |  | healthy humans | oral, dose not given | subjects with ≥1 adverse events | 79.2% |
| CC(C)(C(=O)N1CCOc2c(C#N)cncc2C1)C(F)F |  | human, both sexes | oral, 40 mg single dose | subjects with thrombophlebitis TEAE | 0% |
| CC(=O)N(C)[C@H]1CCN(C(=O)c2cnc3c(c2)C[C@](C)(c2ccc(F)cc2)N3)C1 |  | healthy male human | oral, dose not given, all doses pooled | subjects with severe AEs | 4.2% |

Some of these lines once more:
| SMILES | test | test system | setting | measurement | value |
| --- | --- | --- | --- | --- | --- |
| C[C@H]1CN(C(=O)CC#N)[C@]12CCN(c1ncnc3[nH]ccc13)C2 |  | healthy human | oral, 6 mg single | subjects with serious TEAEs | 0% |
| Cc1cc(-c2nccc3c2ccn3CC(=O)Nc2ccc(-c3cnccn3)cn2)ccn1 |  | human | 5 mg once daily, multiple ascending dose | subjects with Folliculitis adverse event | 12.5% |
